Published values gathered from unrelated publications.
Compare with care: the assays were run in different laboratories. Numbers after ± are the reported error.
Dihydrofolate reductase type 2: Dihydrofolate reductase type 2 (Escherichia coli, UniProt P00383)
Sequence of UniProt P00383 (whole entry, looked up): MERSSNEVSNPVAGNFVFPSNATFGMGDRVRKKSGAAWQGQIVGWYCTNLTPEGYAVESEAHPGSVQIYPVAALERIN
CSNK1D: Casein kinase I isoform delta (CSNK1D, Homo sapiens, UniProt P48730)
Sequence of UniProt P48730 (whole entry, looked up): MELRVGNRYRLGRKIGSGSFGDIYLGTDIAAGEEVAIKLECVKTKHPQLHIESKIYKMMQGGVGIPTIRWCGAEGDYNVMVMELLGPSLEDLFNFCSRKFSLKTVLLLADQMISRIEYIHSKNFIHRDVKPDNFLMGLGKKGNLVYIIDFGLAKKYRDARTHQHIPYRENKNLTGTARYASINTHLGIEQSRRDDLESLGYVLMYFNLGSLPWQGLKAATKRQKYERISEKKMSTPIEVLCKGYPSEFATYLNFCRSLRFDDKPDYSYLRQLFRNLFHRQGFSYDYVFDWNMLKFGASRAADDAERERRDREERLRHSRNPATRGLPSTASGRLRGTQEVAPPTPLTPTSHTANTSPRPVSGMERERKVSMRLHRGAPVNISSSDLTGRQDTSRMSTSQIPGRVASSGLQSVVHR
PSMB5: Proteasome Macropain subunit MB1 (PSMB5, Homo sapiens, UniProt P28074)
Sequence of UniProt P28074 (whole entry, looked up): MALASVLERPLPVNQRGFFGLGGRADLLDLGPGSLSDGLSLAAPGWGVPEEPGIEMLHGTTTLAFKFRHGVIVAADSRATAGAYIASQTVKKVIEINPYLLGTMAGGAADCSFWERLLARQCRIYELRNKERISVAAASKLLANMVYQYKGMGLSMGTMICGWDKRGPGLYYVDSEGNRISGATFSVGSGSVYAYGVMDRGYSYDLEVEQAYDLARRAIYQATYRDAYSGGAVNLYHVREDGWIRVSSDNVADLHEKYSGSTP
Sequence of UniProt P42568 (whole entry, looked up): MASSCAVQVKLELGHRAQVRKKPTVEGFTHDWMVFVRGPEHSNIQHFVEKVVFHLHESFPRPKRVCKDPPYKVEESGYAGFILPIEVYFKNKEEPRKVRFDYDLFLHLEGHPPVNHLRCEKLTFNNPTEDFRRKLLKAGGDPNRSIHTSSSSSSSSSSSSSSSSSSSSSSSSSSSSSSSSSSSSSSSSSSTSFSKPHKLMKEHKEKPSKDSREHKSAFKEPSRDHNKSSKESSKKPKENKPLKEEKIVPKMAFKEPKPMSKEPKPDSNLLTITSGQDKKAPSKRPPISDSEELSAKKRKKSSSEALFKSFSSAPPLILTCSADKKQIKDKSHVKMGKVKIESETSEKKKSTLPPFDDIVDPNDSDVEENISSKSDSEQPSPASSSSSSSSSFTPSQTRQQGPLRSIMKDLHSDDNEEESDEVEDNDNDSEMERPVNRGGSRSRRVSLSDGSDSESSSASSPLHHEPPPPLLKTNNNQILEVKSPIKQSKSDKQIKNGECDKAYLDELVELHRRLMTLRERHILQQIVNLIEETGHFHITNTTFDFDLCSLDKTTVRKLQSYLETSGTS
Sequence of UniProt P04062 (whole entry, unmodified, looked up): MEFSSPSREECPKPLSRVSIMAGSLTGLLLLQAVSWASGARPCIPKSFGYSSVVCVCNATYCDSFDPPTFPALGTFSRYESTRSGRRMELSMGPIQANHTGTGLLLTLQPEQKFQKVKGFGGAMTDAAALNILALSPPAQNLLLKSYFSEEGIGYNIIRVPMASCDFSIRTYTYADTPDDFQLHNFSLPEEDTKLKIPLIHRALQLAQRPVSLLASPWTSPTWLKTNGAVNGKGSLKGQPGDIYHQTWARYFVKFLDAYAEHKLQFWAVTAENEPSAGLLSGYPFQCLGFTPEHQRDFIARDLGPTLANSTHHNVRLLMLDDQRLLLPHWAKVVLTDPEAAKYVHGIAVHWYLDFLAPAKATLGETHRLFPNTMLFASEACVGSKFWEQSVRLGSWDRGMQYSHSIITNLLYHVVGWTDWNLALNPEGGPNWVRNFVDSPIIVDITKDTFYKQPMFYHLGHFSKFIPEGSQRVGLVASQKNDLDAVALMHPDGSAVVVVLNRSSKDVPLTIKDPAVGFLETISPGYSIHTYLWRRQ
Sequence of UniProt P37231 (whole entry, looked up): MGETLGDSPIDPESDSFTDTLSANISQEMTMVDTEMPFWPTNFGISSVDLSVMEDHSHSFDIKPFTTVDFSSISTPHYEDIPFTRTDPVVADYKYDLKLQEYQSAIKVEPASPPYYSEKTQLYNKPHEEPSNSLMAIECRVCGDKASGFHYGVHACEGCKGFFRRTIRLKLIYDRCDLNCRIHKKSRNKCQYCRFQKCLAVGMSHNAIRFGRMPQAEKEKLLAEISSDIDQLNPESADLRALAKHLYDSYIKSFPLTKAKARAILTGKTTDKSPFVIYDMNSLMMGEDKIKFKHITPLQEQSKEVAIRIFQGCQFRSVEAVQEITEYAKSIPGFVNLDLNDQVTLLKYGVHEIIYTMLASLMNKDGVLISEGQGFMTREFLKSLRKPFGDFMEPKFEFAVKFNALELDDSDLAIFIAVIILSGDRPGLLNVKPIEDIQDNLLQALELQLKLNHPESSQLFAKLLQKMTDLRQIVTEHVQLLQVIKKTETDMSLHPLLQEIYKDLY
Sequence of UniProt Q53GL7 (whole entry, looked up): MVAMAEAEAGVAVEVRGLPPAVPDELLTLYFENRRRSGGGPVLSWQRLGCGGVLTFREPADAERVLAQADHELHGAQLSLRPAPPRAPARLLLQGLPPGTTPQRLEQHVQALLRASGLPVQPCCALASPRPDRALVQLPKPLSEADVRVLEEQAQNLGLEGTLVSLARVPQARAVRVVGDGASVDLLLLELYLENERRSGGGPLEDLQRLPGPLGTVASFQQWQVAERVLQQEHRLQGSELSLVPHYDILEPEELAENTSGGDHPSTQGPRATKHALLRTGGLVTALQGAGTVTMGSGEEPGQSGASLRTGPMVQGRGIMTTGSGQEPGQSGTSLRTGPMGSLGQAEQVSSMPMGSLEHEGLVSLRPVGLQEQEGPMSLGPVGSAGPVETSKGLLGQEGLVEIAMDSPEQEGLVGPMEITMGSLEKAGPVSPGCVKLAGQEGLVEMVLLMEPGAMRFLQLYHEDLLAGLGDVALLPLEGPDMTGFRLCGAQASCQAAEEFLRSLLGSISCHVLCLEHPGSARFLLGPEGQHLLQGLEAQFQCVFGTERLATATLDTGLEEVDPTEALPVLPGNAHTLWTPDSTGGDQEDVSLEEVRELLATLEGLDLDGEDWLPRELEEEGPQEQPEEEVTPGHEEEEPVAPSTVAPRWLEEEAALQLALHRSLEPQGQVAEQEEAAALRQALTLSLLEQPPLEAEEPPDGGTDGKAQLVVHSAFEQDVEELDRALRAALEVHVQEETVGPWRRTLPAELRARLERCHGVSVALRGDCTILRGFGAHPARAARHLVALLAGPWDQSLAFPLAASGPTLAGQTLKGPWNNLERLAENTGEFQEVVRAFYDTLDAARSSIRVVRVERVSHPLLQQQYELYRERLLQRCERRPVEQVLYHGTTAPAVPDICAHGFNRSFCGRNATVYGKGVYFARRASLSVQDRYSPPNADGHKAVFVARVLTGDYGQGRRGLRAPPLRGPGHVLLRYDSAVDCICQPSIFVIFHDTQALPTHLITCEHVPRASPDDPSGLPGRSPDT
Sequence of UniProt P20618 (whole entry, looked up): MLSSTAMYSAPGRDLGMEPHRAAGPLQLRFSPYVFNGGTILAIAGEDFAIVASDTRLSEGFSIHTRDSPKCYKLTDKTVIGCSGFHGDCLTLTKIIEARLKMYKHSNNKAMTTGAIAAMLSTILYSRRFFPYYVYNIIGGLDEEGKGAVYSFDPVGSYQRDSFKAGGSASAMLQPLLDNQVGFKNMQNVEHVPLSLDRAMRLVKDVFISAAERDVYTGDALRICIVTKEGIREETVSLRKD
Sequence of UniProt Q96KS0 (whole entry, looked up): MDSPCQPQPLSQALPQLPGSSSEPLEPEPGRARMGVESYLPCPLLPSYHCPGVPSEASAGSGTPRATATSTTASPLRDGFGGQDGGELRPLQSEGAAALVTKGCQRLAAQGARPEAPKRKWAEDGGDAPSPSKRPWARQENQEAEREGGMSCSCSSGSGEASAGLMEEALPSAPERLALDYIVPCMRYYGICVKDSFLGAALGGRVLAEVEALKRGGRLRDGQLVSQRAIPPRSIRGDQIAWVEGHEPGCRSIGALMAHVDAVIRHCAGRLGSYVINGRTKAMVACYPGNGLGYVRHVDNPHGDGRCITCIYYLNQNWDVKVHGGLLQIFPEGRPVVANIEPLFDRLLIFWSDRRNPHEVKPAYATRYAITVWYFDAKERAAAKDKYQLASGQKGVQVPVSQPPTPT
Sequence of UniProt P21980 (whole entry, looked up): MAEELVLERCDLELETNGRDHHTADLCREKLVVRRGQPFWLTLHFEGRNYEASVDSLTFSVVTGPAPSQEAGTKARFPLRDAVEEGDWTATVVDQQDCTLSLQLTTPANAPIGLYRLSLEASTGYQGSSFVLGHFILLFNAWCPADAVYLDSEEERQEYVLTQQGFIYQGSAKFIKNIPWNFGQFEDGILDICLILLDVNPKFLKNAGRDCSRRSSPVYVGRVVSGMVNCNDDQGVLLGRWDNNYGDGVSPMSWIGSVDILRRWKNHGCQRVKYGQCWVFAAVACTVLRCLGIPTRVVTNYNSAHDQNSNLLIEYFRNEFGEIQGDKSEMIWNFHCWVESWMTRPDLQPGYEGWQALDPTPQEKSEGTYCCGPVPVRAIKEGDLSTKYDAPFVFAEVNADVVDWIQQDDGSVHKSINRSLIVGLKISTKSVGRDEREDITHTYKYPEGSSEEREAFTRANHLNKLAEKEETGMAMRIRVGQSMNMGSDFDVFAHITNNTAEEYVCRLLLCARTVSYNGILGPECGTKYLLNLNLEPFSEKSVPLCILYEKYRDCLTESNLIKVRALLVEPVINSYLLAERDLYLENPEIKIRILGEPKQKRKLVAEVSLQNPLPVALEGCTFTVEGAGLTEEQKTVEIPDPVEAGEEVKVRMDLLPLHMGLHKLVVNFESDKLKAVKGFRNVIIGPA

CC(C)C[C@H](NC(=O)OCc1ccccc1)C(=O)N[C@@H](CC(C)C)C(=O)NN(CC(C)C)C(=O)/C=C/C(=O)NCc1ccccc1
IC50 (Proteasome component C5/PSMB5 (Homo sapiens, UniProt P20618+P28074); chymotrypsin-like activity, inhibitor; human 20S proteasome; together with: Suc-LLVY-AMC 100 µM): 900 ± 200 nM

CC(C)N(CCC(=O)c1ccc2ccccc2c1)Cc1ccccc1
IC50 (TGM2 (Homo sapiens, UniProt P21980); enzyme activity, inhibitor, BP incorporation; together with: no DTT, no Triton): 10 ± 10 nM

CC1(C)NC(=O)N(c2ccc3c(c2)OC(F)(F)O3)C1=O
IC50 (Androgen receptor (AR, Homo sapiens, UniProt P10275); reporter gene, antagonist; LAPC4; 24 h, together with: DHT 10 nM): 4900 nM

CN1CCN(CCCOc2ccc(-c3nc4ccc(C(=O)NCc5ccccc5)cc4[nH]3)cc2)CC1
IC50 (Dihydrofolate reductase type 2; enzyme activity; pH 7): > 500000 nM

COc1ccc2c(=O)[nH]c3c(nnn3Cc3ccc(C)cc3)c2c1
IC50 (PARP10 (Homo sapiens, UniProt Q53GL7)): 11.2 nM

COc1ccc([N+](=O)[O-])cc1C(=O)Nc1ccc(OCCF)cc1
IC50 (Peroxisome proliferator-activated receptor gamma, ligand-binding domain (PPARG, Homo sapiens, UniProt P37231); binding, scintillation proximity; His-tagged ligand-binding domain; together with: [3H]rosiglitazone): 53.6 ± 6.2 nM

CN1CCN(c2ccc(Nc3ncc4cc(C#N)c(=O)n(C5CCCC5)c4n3)cc2)CC1
IC50 (TAOK3 (Homo sapiens, UniProt Q9H2K8)): 2290 nM

Fc1ccc(-c2nc(C3CCCCC3)[nH]c2-c2ccncc2)cc1
IC50 (CSNK1D; inhibitor): 28.3 ± 3.4 nM

c1cc(N2CCCC2)ccc1-c1ccc2ncc(OCC3CCNCC3)nc2c1
IC50 (Protein AF-9, with DOT1L (Homo sapiens, UniProt P42568); DOT1L binding, AlphaLISA): 3700 nM

COc1ccc(C[C@H](NC(=O)[C@H](C)NC(=O)CN2CCOCC2)C(=O)N[C@@H](CCC2CCCCC2)C(=O)[C@@]2(C)CO2)cc1
IC50 (PSMB5; inhibitor, competition; RPMI-8226): > 10000 nM

COc1cccc(CNC(=O)c2cn(Cc3ccc(Cn4ccccc4=O)cc3)nc2C2CC2)c1F
IC50 (Prothrombin (F2, Homo sapiens, UniProt P00734)): > 40000 nM

[Fe+2].c1ccc(CN(Cc2ccccn2)C(c2ccccn2)c2ccccn2)nc1
IC50 (PSMB5; chymotrypsin-like activity, inhibitor, purified 20S proteasome; 30 min, pH 7.4, 37 °C, together with: 20 µM Suc-LLVY-AMC): 9200 nM

CC(C)(C)OC(=O)N1CCN(Cc2ccn(Cc3ccc(Cl)cc3)c(=O)c2O)CC1
IC50 (EGLN2 (Homo sapiens, UniProt Q96KS0); enzyme activity, inhibitor, AlphaScreen; together with: CODD peptide, Fe(II) 10 µM): 4800 nM

CCn1cc(C(=O)Nc2cccc(O)c2)c(=O)c2cc(F)c(N3CCN(C(C)=O)CC3)cc21
IC50 (RET (Homo sapiens, UniProt P07949); kinase activity, inhibitor; replicate two, together with: 1 µM ATP, poly(Glu,Tyr)): 40600 nM

Cc1ncc(C(=O)N[C@@H](CC(C)C)C(=O)N[C@@H](CC2CCC(C3CCCCC3)CC2)C(=O)N[C@H](/C=C/S(C)(=O)=O)Cc2ccc(CN)cc2)s1 (stereo partly drawn)
IC50 (PSMB5; inhibitor, competitive ABPP; Raji cell lysate; constitutive proteasome β5c): 1050 nM

c1ccc(COc2ccc(Nc3ccc4ncc(OCC5CCNCC5)nc4c3)cc2)cc1
IC50 (Protein AF-9, with AF4 (Homo sapiens, UniProt P42568); AlphaScreen): 2600 ± 560 nM

Oc1ccc(Cl)cc1Nc1nc(NCC2CCCO2)c2ccccc2n1 (stereo not drawn)
IC50 (GBA1 (Homo sapiens, UniProt P04062, R534H); enzyme activity, inhibitor; 20 min, room temperature, together with: 4MU-β-glucoside 800 µM): 160 nM

NC(=O)c1cccc(NC(=O)/C=C/c2c[nH]c3ccccc23)c1
viability (HBL-1; 1 µM, 120 h): 106%

Fc1ccc(-c2nc(-c3c(Cl)cccc3Cl)[nH]c2-c2ccncc2)cc1
IC50 (CSNK1D; inhibitor): 20.8 ± 9.4 nM

CCN(CC)Cc1ccc2cc(COC(=O)Nc3ccc(C(=O)NO)cc3)ccc2c1
viability (HBL-1; 1 µM, 120 h): 0.334%

CCN(CCO)C(=O)c1ccc2nc(-c3ccc(OCCC(O)COc4ccc(-c5nc6ccc(C(=O)N(CC)CCO)cc6[nH]5)cc4Br)c(Br)c3)[nH]c2c1 (stereo not drawn)
IC50 (Dihydrofolate reductase type 2; enzyme activity; pH 7): > 50000 nM

A few entries again:
c1cc(N2CCCC2)ccc1-c1ccc2ncc(OCC3CCNCC3)nc2c1
IC50 (Protein AF-9, with DOT1L (Homo sapiens, UniProt P42568); DOT1L binding, AlphaLISA): 3700 nM

COc1ccc(C[C@H](NC(=O)[C@H](C)NC(=O)CN2CCOCC2)C(=O)N[C@@H](CCC2CCCCC2)C(=O)[C@@]2(C)CO2)cc1
IC50 (PSMB5; inhibitor, competition; RPMI-8226): > 10000 nM

COc1cccc(CNC(=O)c2cn(Cc3ccc(Cn4ccccc4=O)cc3)nc2C2CC2)c1F
IC50 (Prothrombin (F2, Homo sapiens, UniProt P00734)): > 40000 nM
